Measurements of several laboratories.
Numbered parts are unrelated; each lists some results of a single study.

Series 1 — method: RNA Bind-n-Seq; molecule type: RNA; matrix: in vitro; concentration: 365 nM; reference: no-protein control; reading: higher = stronger binding
Target: RNA binding protein fox-1 homolog 2, RRM domain, GST-SBP tag (RBFOX2, Homo sapiens, UniProt O43251-10, residues 100-194)
Setting: natural RNA segment, single round, ends assumed
Construct (chain): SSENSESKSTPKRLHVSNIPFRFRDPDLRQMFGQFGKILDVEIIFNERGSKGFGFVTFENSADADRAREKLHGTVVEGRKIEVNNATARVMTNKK
`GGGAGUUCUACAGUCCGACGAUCACGUAUGAGUACCUCACGAGAUUGCCACCCUACUCCGCCGAAAGGGUGGAAAACUAGAGAGAUCACCCUCGACCUGCCUGGGUAGGGCUGGCAGUAGCUGUCCCAGCCUCUGGAAUUCUCGGGUGCCAA` — result for “RBNS enrichment (R)”: 0.252.
For `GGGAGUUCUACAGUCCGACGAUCGAUUAGUUAUGCAGUAUUUCUUAUCAAUGUCUAGCCCUUGUGUAUUGUUCUGAAAACUAAAGUUUAAAUCUUUAUGCUGUUGCUUGCUAGAUAUCCUGUUCUUUGGUAGAUGGAAUUCUCGGGUGCCAA`, “RBNS enrichment (R)” read 1.52.
For `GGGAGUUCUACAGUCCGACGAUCCUUCCAUAUAUGCUUCUAAGUAUCCUACCUCUUUGAAGAAAAGAUAGGGAUGGAGUGAGGUGACAGUGGGAAGGGACACAACUACAUGGCCUUUCAUGACCCUGGCUUACUGGAAUUCUCGGGUGCCAA`, “RBNS enrichment (R)” read 0.241.
For `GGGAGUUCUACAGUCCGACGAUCAUGUUAGCCCAAGCUCAGGGUAGGCCCAGGGGGCUGGGAGAAAUGAAGCCACCCAUGGGGACUGGGGACCAGGGGCCUUCAGCAUGGCUUCUAGGUUCCCUCCUCCCCCUUGGAAUUCUCGGGUGCCAA`, “RBNS enrichment (R)” read 0.322.
`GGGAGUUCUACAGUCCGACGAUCUGACCCUUGCUCCCUGCUACACAGAGCAUCGCAGGGCUGGCCUGUGUGGUUUCCAGAUGAGGGUCUGGGUCCCGGAAGCUUGUGUUGAGAGCUCAGUGGACCCACCCCGCUGGAAUUCUCGGGUGCCAA`: “RBNS enrichment (R)” 0.656.
For `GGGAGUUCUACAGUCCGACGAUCGUCUGUGUGCUCUCGCAAUGUUCCUGUCUAAUUCUUGACUGAUUCUGGGUCUGUCCUGACCUCUAGAGGUGAGCUUGCUGCUUGAGGUCUCCCAGCUCCUGACUGUGGCAUGGAAUUCUCGGGUGCCAA`, “RBNS enrichment (R)” read 0.559.
Under “RBNS enrichment (R)”, `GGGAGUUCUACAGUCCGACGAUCCCCAGGCUGGAGUGCAGUGGCUCAAUCUCGGGUCACUGCAACCUCCGCCUCCCGGGUUCAAGUGAUCGUCCUGCCUUAGGCUCCUGAGUAGCUGGGGAUUACAGGUGCCUUGGAAUUCUCGGGUGCCAA` is recorded as 0.29.
Under “RBNS enrichment (R)”, `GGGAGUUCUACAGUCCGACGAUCUCUAGCUACAGAGUCCAGGCCACUGGACCAGCCAACAUCUGGGCUGCUGCAGGGAGGCCUGGCCUAUUUUUUCUUAAAACAUAUUUUAUAAAACUACAACCUGAUCUACCUGGAAUUCUCGGGUGCCAA` is recorded as 0.574.

Series 2 — method: RNA Bind-n-Seq; molecule type: RNA; matrix: in vitro; concentration: not given; reference: input RNA pool; reading: higher = stronger binding
Target: RING finger protein unkempt homolog, zinc fingers 1-6, GST-SBP tag (UNK, Homo sapiens, UniProt Q9C0B0, residues 30-357)
Chain of UniProt Q9C0B0 (30-357, looked up): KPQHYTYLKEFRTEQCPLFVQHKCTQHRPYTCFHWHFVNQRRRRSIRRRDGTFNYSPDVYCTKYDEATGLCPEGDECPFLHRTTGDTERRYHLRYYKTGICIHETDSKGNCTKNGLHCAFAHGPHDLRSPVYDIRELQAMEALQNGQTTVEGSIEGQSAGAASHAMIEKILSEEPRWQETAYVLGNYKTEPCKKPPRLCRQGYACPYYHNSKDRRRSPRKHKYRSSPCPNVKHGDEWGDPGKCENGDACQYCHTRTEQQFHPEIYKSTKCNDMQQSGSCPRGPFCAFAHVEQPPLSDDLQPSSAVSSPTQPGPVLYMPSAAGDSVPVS
Setting: RNA with constant flanks, human-mouse chimeric sites, ends assumed
For `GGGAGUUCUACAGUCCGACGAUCGCGGCAGAAUCAUGGUGGACAUAAUGCAGCUCCCCAAAGCGCGCGUCAACGCCAGCAUGUUACCACAGUAUAUCGACCGGCCCGUGUGCUUCGUGGGGAAGCUGGAAAAGAUUCAUCCCACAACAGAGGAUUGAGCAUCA`, the bound/input enrichment was 0.113 ratio.
`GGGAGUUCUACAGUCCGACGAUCAAAGAGUGGAUAGAAUGUGCACACGGGAUCGGUGGGACUCGGGCAGAAAAGGAGUGCAAGAUAGAGUUCGAUGACUUCGAAGAGUGCUUGCUUCGGUACAAAACGAUGAGGCGAAUGCAUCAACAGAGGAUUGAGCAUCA` has a bound/input enrichment of 0.256 ratio.
The bound/input enrichment of `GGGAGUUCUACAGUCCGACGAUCCUUAAUGUUAAUAUUUUUAAAGGAAGCAAGCUAAAAUGUCUGCUUUUGGUACAACACGCAUUAGCGAAAGGUUAAGUUUUGUUUUCCACUGAAGUACUAUUUAACAUCUCAGAAAAAAACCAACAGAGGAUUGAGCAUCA` is reported as 0.328 ratio.
`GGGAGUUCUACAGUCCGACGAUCCAGGGCACAGCACCUACCCCCUCCUCCUUUCCACACCUGCAAACUCUUUUACUUGGGCUGAAUAUUUAGUGUAAUUACAUCUCAGCUUUGAGGGCUCCCUGUGGCAAUUCCCGGAUUAAACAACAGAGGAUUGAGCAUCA` has a bound/input enrichment of 1.28 ratio.
The bound/input enrichment of `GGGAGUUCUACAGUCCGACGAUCGACUUUGGGACUGGUCCUCGCAACGCAGCCUACUAUAGCCCUCAUGGACAUAUAUUAGUAUUAGCUGGAUUUGGAAAUCUUCGAGGACAAAUGGAAGUAUGGGAUGUUAAAAACUACAAGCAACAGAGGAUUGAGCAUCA` is reported as 0.587 ratio.
For `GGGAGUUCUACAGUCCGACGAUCGAUGAUAAUCACACAAACAAGUCACUGUUAUGUGACCAGCCUUGGGAUUCUUUUCCUGAUUAAUAUUCUCCCUGGAACCACUGGUCAAGGGGAAUCAAGACGACAAGAACCCGGGGACUUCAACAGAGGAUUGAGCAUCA`, the bound/input enrichment was 0.144 ratio.
`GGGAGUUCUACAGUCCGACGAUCGCUCCUCCCCGCUCUGCCCCUGCCUGCCACUGGGCUGCAUUUUUUUUCCAGCUUUCUUUUAAAACUCUCAGUGUAACUGUAUCCCGUGACAUUUCAUUUUUUUUAAAUAGUGUAUUUUUUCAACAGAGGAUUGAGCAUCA` gave a bound/input enrichment of 5.83 ratio.
For `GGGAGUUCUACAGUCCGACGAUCGGACCAUAAUCAUGGAGGACAUAAUGCAGCUCCCCAAAGCGCGCGUCAACGCCAGCAUGUUACCACAGUAUAUCGACCGGCCCGUGUGCUUCGUGGGGAGGCUGGAAAAGAUUCAUCCCACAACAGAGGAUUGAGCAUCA`, the bound/input enrichment was 0.134 ratio.

Series 3 — method: RNA Bind-n-Seq; molecule type: RNA; matrix: in vitro; concentration: 200 nM; setting: whole 134-nt RNA, ends assumed; added: 150 mM KCl; reference: input library; reading: higher = stronger binding
Target: Ras GTPase-activating protein-binding protein 1, full length (G3BP1, Homo sapiens, UniProt Q13283)
Chain of UniProt Q13283 (whole entry, looked up): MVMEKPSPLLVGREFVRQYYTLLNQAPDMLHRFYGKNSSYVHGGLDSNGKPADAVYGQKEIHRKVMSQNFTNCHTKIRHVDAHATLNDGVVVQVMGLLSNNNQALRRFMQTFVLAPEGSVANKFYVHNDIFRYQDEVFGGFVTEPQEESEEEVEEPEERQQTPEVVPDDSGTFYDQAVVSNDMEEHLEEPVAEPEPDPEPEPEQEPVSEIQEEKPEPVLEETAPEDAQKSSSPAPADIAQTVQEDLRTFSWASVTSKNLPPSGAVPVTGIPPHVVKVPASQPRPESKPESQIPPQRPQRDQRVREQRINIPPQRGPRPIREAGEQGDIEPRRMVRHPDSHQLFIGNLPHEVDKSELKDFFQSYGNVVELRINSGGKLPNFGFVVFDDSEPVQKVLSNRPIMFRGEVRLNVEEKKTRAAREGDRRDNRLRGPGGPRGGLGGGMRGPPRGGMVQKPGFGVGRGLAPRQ
The log2 enrichment of `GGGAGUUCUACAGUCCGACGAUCGUCCUGUGCUACACAUCGUAUGUACCGAAUCGGGUUUUUGGGUUUUUGGGGUUUUUGGAAAGUAUUAUGUUACGCCGUUCGGAUCUGCACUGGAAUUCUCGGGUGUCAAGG` is reported as -0.523.
For `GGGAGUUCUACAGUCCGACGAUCUCCUGUGCUACACAUCGUAUGUACCGAAUCGGGGUUUUUUGGUUUUUUGGGUUUUUUGGGAAAGUAUUAUGUUACGCCGUUCGGAUCUGCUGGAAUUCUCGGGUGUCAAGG`, the log2 enrichment was -0.412.
For `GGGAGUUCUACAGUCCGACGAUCCUCAAGUCCUGUGCUACACAUCGUAUGUACCGAAUCGGGGUGGGGUGGGGUGGGAAAGUAUUAUGUUACGCCGUUCGGAUCUGCACUUCCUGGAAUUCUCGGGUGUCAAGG`, the log2 enrichment was 0.86.
The log2 enrichment of `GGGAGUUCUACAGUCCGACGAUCGCAGGACGUAAAAACAAAUGGAAAUGCUUCGGAUAGUGGCAGGGGUGGGGGUUGCUAAGGAAAGGGUGGGAUGGGAGUGGGUAAAGAGUUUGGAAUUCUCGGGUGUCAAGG` is reported as 1.39.
The log2 enrichment of `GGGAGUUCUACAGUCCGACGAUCCAAGUCCUGUGCUACACAUCGUAUGUACCGAAUCGGUUUUGGUUUUGGGUUUUGGAAAGUAUUAUGUUACGCCGUUCGGAUCUGCACUUCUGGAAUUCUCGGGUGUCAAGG` is reported as -1.23.
`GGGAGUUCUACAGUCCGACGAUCUCUGAGCAAUUGAAUGCCCUAAACAAGGCUUACCAUGACCUUUGUGAUGGUUCUGCAAAUCAGCUUCAGCAGCUUCAGAGCCAGUUGGCUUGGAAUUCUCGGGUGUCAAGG` has a log2 enrichment of -2.35.
With `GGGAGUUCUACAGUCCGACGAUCAAGUCCUGUGCUACACAUCGUAUGUACCGAAUCGGGCCCCCGGCCCCCGGCCCCCGGAAAGUAUUAUGUUACGCCGUUCGGAUCUGCACUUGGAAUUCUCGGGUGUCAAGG` the log2 enrichment was -0.27.
The log2 enrichment of `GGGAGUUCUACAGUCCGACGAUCUGGCCCUGGUGGCAUGCGGGGAGGAAGAGGUGGCCUCAUGGAUCGUGGUGGUCCCGGUGGAAUGUUCAGAGGUGGCCGUCGUGGAGACAGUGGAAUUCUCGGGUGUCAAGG` is reported as 0.179.
For `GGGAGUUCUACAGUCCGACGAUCCCUGUGCUACACAUCGUAUGUACCGAAUCGGGUUUUUUGGGGUUUUUUGGGUUUUUUGGGAAAGUAUUAUGUUACGCCGUUCGGAUCUGCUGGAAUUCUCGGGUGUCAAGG`, the log2 enrichment was -0.582.

Series 4 — method: universal PBM; molecule type: double-stranded DNA, one strand shown; matrix: in vitro; concentration: not given; reading: higher = stronger binding
Target: Sal-like protein 4, full length isoform B (SALL4, Homo sapiens, UniProt Q9UJQ4-2, residues 1-616)
Setting: 8-mer, flanks averaged, mean of replicates
Target sequence (chain): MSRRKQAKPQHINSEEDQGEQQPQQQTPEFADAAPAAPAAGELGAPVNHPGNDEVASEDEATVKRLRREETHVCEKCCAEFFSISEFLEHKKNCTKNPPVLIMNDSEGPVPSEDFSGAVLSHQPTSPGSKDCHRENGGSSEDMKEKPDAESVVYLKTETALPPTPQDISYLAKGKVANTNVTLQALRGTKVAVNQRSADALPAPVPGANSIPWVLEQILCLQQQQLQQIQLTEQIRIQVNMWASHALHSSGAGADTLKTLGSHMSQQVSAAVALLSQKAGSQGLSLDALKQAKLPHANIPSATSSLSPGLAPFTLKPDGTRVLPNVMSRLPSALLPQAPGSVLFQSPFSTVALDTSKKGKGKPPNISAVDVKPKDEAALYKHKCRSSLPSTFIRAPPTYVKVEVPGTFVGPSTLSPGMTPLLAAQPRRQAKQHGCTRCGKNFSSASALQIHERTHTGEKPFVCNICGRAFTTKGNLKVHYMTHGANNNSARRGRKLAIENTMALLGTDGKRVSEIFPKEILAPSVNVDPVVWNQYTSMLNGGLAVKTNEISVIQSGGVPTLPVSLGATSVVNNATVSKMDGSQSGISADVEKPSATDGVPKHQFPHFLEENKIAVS
`AAAGGCTT` has an E-score of -0.0644.
For `CAAACAGG`, the E-score was -0.118.
For `AGTATACT`, the E-score was 0.139.
`CATACTCG` has an E-score of 0.00622.
For `ACACGCAG`, the E-score was -0.128.
The E-score of `GGAACGAA` is reported as -0.0301.
`ACGAAAGA` has an E-score of 0.121.
With `GACTGAGC` the E-score was -0.288.
`AATCAGTG` has an E-score of 0.0344.
`GTACAGGA` has an E-score of -0.0907.
The E-score of `CCGGGACC` is reported as -0.385.
With `GCTGATTA` the E-score was 0.0804.
For `CTCTCATA`, the E-score was 0.204.
`GCATGACC` has an E-score of -0.224.
The E-score of `CTGCCGAA` is reported as -0.107.
The E-score of `AGAATGCT` is reported as 0.0612.
For `CGCCCACG`, the E-score was -0.273.
`CCCGTAGA` has an E-score of -0.268.
For `AGATATCC`, the E-score was 0.169.
`CGAGCAGA` gave an E-score of -0.201.

Repeated from above (series 4):
`GCATGACC` has an E-score of -0.224.
The E-score of `CTGCCGAA` is reported as -0.107.
The E-score of `AGAATGCT` is reported as 0.0612.
For `CGCCCACG`, the E-score was -0.273.
`CCCGTAGA` has an E-score of -0.268.
For `AGATATCC`, the E-score was 0.169.
